Published values gathered from unrelated publications.
Each line is one published result; not all experiments were run side by side. ± marks the error that the study gave.

The AUC of `CC1(C)C(=O)N(c2ccc(C#N)c(C(F)(F)F)c2)C(=S)N1c1ccc(C(=O)O)c(F)c1` is reported as 11400 ng·h/mL (male human, plasma; oral, 40 mg, single dose, fasted).
`C[C@H](O)[C@@H](NC(=O)[C@H]1CCCN1C(=O)[C@@H](CCCCN)NC(=O)[C@@H](CO)NC(=O)[C@@H](Cc1ccc(O)cc1)NC(=O)[C@@H](CC(N)=O)NC(=O)CCOCCOCCOCCNC(=O)CN1CCN(CC(=O)O)CCN(CC(=O)O)CCN(CC(=O)O)CC1)C(=O)N[C@H](CC(=O)O)C(=O)N[C@H](CCCNC(=N)N)C(=O)N[C@H](CCC(N)=O)C(=O)N[C@H](Cc1ccc(O)cc1)C(=O)N[C@H](Cc1c[nH]cn1)C(=O)N[C@H](Cc1ccccc1)C(N)=O` [copper-64 labelled] gave a tissue uptake of 28.6 ± 3.04 %ID/g (C57BL/6J mice, kidney; intravenous, 1.85 MBq, 0.3333 h, radiolabelled).
The SUVmean of `CC[C@H](C)[C@H](NC(=O)[C@H](CCCCN)NC(=O)CNC(=O)[C@H](CC(C)C)NC(=O)[C@H](Cc1ccccc1)NC(=O)[C@H](CCCCN)NC(=O)[C@H](CO)NC(=O)[C@H](Cc1ccccc1)NC(=O)[C@H](Cc1c[nH]c2ccccc12)NC(=O)[C@H](CCC(N)=O)NC(=O)[C@@H](NC(=O)[C@H](Cc1ccccc1)NC(=O)CCCCCNC(=O)CN1CCN(CC(=O)O)CCN(CC(=O)O)CCN(CC(=O)O)CC1)C(C)C)C(=O)N[C@@H](CCC(=O)O)C(=O)N1CCC[C@H]1C(=O)N[C@@H](CC(=O)O)C(=O)N[C@H](C(=O)N[C@@H](CO)C(=O)N[C@@H](CCC(N)=O)C(=O)N[C@H](C(=O)N[C@@H](CCC(N)=O)C(=O)N[C@@H](CC(=O)O)C(=O)N1CCC[C@H]1C(=O)N[C@@H](CC(N)=O)C(=O)N[C@@H](CC(=O)O)C(=O)N[C@@H](CCC(N)=O)C(=O)N[C@@H](Cc1ccc(O)cc1)C(=O)N[C@@H](CCC(=O)O)C(=O)N1CCC[C@H]1C(=O)N[C@@H](Cc1ccccc1)C(=O)O)C(C)C)C(C)C` [copper-64 labelled] is reported as 4.34 SUV (dynamic PET; mouse, CT26 tumour, checkpoint inhibitor-treated, tumour; intravenous, 100 µCi/mouse, 3500 s).
`O=C1NC2(CC2)COc2ncc(F)cc2[C@H]2COCCN2c2ccn3ncc1c3n2` gave a serum urea of 4.2 ± 0.71 mmol/L (Sprague-Dawley rat, male, serum; oral, 20 mg/kg/day, end of recovery, 4-week subacute toxicity).
`COC(=O)[C@H]1[C@@H](c2ccc(Cl)c(Cl)c2)C[C@@H]2CC[C@H]1N2CCCCCCCCCCCc1c2ccccc2cc2ccccc12` gave a pKa of 5 (fluorometric titration; 1 µM, 10% DMSO).
`N#[11C]c1ccc(-c2csc(NN=C3CCCC3)n2)cc1` gave a radioactivity uptake of 0.6 SUV (dynamic PET/CT; C57BL/6 mouse, kidneys; intravenous, dose not given, 60 min).
Under “chronic toxic concentration”, `CC[C@H](C)[C@H](NC(=O)CN)C(=O)N[C@@H](CCCNC(=N)N)C(=O)N[C@@H](CCCCN)C(=O)N[C@@H](Cc1c[nH]c2ccccc12)C(=O)N[C@@H](Cc1ccccc1)C(=O)N[C@@H](CCCCN)C(=O)N[C@@H](CCCCN)C(=O)N[C@@H](C)C(=O)N[C@@H](C)C(=O)N[C@@H](Cc1c[nH]cn1)C(=O)N[C@H](C(=O)NCC(=O)N[C@@H](CCCCN)C(=O)N[C@@H](CCC(=O)O)C(=O)N[C@H](C(=O)NCC(=O)N[C@@H](CCCCN)C(=O)N[C@H](C(=O)N[C@@H](C)C(=O)N[C@@H](CC(C)C)C(=O)N[C@@H](CC(N)=O)C(=O)N[C@@H](C)C(=O)N[C@@H](CS)C(=O)N[C@@H](CC(C)C)C(=O)O)C(C)C)C(C)C)C(C)C` is recorded as 25 µM (zebrafish embryos 28 hpf, E3 medium; 24 h).
`CCCCCCCC(=O)NCCCC[C@H](NC(=O)CCCCCCC)C(=O)N[C@@H](CCCCNC(=O)CCCCCCC)C(=O)NCC(=O)NCC(=O)NCC(=O)N[C@@H](CS)C(=O)N[C@@H](CCCNC(=N)N)C(=O)N[C@@H](CCCCN)C(=O)N1CCC[C@H]1C(=O)N[C@@H](CS)C(=O)N[C@@H](CCCNC(=N)N)C(=O)N[C@@H](CCCCN)C(=O)N1CCC[C@H]1C(=O)N[C@@H](CS)C(=O)N[C@@H](CCCNC(=N)N)C(=O)N[C@@H](CCCCN)C(=O)N1CCC[C@H]1C(N)=O` has an assembly diameter of 7.97 ± 0.14 nm (TEM; phosphate buffer; 64 µM, overnight).
For `CCc1nn(C)c2nc(-c3ccc(C(=O)O)cc3)nc(NCc3ccccc3)c12`, the concentration was 303 ng/mL (male CD-1 mouse, plasma; oral, 10 mg/kg, 7 h).
`COc1cnc2cccc(N3CCc4c(cc(Cn5ccnc5)cc4-c4cn(C)nc4C(F)(F)F)C3=O)c2c1` has a body weight of 27.8 ± 0.5 g (CD-1 mice; intraperitoneal, 100 mg/kg once daily, day 1).
With `CN1Cc2cc(Cl)ccc2-n2c(nnc2C2CCN(c3cccc([18F])n3)CC2)C1` the tissue uptake was 7.34 ± 1.04 %ID/g (C57BL/6 mouse male, stomach; intravenous, 3.7 MBq, 5 min).
For `CSCC[C@H](N)C(=O)N[C@@H](C)C(=O)N[C@@H](Cc1c[nH]c2ccccc12)C(=O)N[C@@H](Cc1c[nH]cn1)C(=O)N[C@@H](CC(=O)O)C(=O)N[C@@H](CC(=O)O)C(=O)N[C@@H](CCC(=O)O)C(=O)N[C@@H](CCC(=O)O)C(=O)N[C@@H](Cc1ccccc1)C(=O)N[C@@H](C)C(=O)N[C@@H](CCCNC(=N)N)C(=O)N[C@@H](CCCNC(=N)N)C(=O)N[C@@H](CCCNC(=N)N)C(=O)N[C@@H](CCCNC(=N)N)C(=O)NCCCCCC(=O)NCCCCC(NC(=O)CCCCCNC(=O)[C@H](CCCNC(=N)N)NC(=O)[C@H](CCCNC(=N)N)NC(=O)[C@H](CCCNC(=N)N)NC(=O)[C@H](CCCNC(=N)N)NC(=O)[C@H](C)NC(=O)[C@H](Cc1ccccc1)NC(=O)[C@H](CCC(=O)O)NC(=O)[C@H](CCC(=O)O)NC(=O)[C@H](CC(=O)O)NC(=O)[C@H](CC(=O)O)NC(=O)[C@H](Cc1c[nH]cn1)NC(=O)[C@H](Cc1c[nH]c2ccccc12)NC(=O)[C@H](C)NC(=O)[C@@H](N)CCSC)C(=O)NCCCCC(NC(=O)C(CCCCNC(=O)CCCCCNC(=O)[C@H](CCCNC(=N)N)NC(=O)[C@H](CCCNC(=N)N)NC(=O)[C@H](CCCNC(=N)N)NC(=O)[C@H](CCCNC(=N)N)NC(=O)[C@H](C)NC(=O)[C@H](Cc1ccccc1)NC(=O)[C@H](CCC(=O)O)NC(=O)[C@H](CCC(=O)O)NC(=O)[C@H](CC(=O)O)NC(=O)[C@H](CC(=O)O)NC(=O)[C@H](Cc1c[nH]cn1)NC(=O)[C@H](Cc1c[nH]c2ccccc12)NC(=O)[C@H](C)NC(=O)[C@@H](N)CCSC)NC(=O)CCCCCNC(=O)[C@H](CCCNC(=N)N)NC(=O)[C@H](CCCNC(=N)N)NC(=O)[C@H](CCCNC(=N)N)NC(=O)[C@H](CCCNC(=N)N)NC(=O)[C@H](C)NC(=O)[C@H](Cc1ccccc1)NC(=O)[C@H](CCC(=O)O)NC(=O)[C@H](CCC(=O)O)NC(=O)[C@H](CC(=O)O)NC(=O)[C@H](CC(=O)O)NC(=O)[C@H](Cc1c[nH]cn1)NC(=O)[C@H](Cc1c[nH]c2ccccc12)NC(=O)[C@H](C)NC(=O)[C@@H](N)CCSC)C(N)=O` (some centres unmarked), the tissue distribution was 15.8% (C57BL/6 mouse female, small intestine; 3 h; relative to: total dose).
The survival of `N=C(N)NCCC[C@@H](NC(=O)[C@H](N)Cc1c[nH]c2ccccc12)C(=O)N[C@H](CCCCN)C(=O)N[C@H](Cc1c[nH]c2ccccc12)C(=O)N[C@H](CCCNC(=N)N)C(=O)N[C@H](CCCCN)C(=O)N[C@H](Cc1c[nH]c2ccccc12)C(=O)N[C@H](CCCNC(=N)N)C(=O)N[C@H](CCCCN)C(=O)N[C@H](Cc1c[nH]c2ccccc12)C(=O)N[C@H](CCCNC(=N)N)C(=O)N[C@H](CCCCN)C(N)=O` is reported as 100% (mouse; intraperitoneal, 20 mg/kg single dose, day 2).
`CC(C)Oc1c(NC(=O)c2ccc(NC(=O)[C@H](CC(N)=O)NC(=O)c3ccc(/N=N/c4ccccc4)cc3)cc2)ccc(C(=O)Nc2ccc(C(=O)O)cc2)c1O` has a thermal half-life of 1.8 h (absorbance; DMSO; 50 °C, PSS to ground state relaxation).
The degraded peptide of `CC(C)C[C@H](NC(=O)CNC(=O)[C@H](Cc1ccccc1)NC(=O)[C@@H](NC(=O)[C@@H](NC(=O)c1cccc(S(=O)(=O)F)c1)[C@@H](C)O)C(C)C)C(=O)N[C@@H](CC(N)=O)C(=O)N[C@H](C(=O)N[C@@H](Cc1c[nH]c2ccccc12)C(=O)N[C@@H](CCCCN)C(=O)N[C@@H](CCCNC(=N)N)C(=O)N[C@@H](Cc1ccc(O)cc1)C(=O)N[C@@H](CO)C(=O)N[C@@H](CCCCN)C(=O)NCC(=O)N[C@@H](CCCCNc1ccc([N+](=O)[O-])cc1[N+](=O)[O-])C(N)=O)C(C)C` is reported as roughly 50% (chemical stability, LC-MS, item: intramolecular amine attack product; PBS/DMSO/water; 52 µM, 24 h, 10% DMSO, 80% water).
`C=C/C=C/C[C@@H](C)[C@@H](O)[C@H]1C(=O)N[C@@H](CC)C(=O)N(C)CC(=O)N(C)[C@@H](CC(C)C)C(=O)N[C@@H](C(C)C)C(=O)N(C)[C@@H](CC(C)C)C(=O)N[C@@H](C)C(=O)N[C@H](C)C(=O)N(C)[C@@H](CC(C)C)C(=O)N(C)[C@@H](CC(C)C)C(=O)N(C)[C@@H](C(C)C)C(=O)N1C` has a trough concentration of 41.4 ± 9.5 ng/mL (LC-MS/MS; Wistar Kyoto rat, male, whole blood; ip, 0.5 mg/kg/day, 672 h after 28 days).
Under “serum alkaline phosphatase”, `C=Cc1c(C)c2cc3nc(c(CC(=O)[O-])c4[n-]c(cc5nc(cc1[n-]2)C(C)=C5CC)c(C)c4C(=O)[O-])C(CCC(=O)[O-])C3C.[Cu+2].[Na+].[Na+].[Na+]` (centres unmarked) is recorded as 183 ± 33.6 U/L (Wistar rat, male; oral, 1000 mg/kg daily, 28 days).

Some of these lines once more:
The SUVmean of `CC[C@H](C)[C@H](NC(=O)[C@H](CCCCN)NC(=O)CNC(=O)[C@H](CC(C)C)NC(=O)[C@H](Cc1ccccc1)NC(=O)[C@H](CCCCN)NC(=O)[C@H](CO)NC(=O)[C@H](Cc1ccccc1)NC(=O)[C@H](Cc1c[nH]c2ccccc12)NC(=O)[C@H](CCC(N)=O)NC(=O)[C@@H](NC(=O)[C@H](Cc1ccccc1)NC(=O)CCCCCNC(=O)CN1CCN(CC(=O)O)CCN(CC(=O)O)CCN(CC(=O)O)CC1)C(C)C)C(=O)N[C@@H](CCC(=O)O)C(=O)N1CCC[C@H]1C(=O)N[C@@H](CC(=O)O)C(=O)N[C@H](C(=O)N[C@@H](CO)C(=O)N[C@@H](CCC(N)=O)C(=O)N[C@H](C(=O)N[C@@H](CCC(N)=O)C(=O)N[C@@H](CC(=O)O)C(=O)N1CCC[C@H]1C(=O)N[C@@H](CC(N)=O)C(=O)N[C@@H](CC(=O)O)C(=O)N[C@@H](CCC(N)=O)C(=O)N[C@@H](Cc1ccc(O)cc1)C(=O)N[C@@H](CCC(=O)O)C(=O)N1CCC[C@H]1C(=O)N[C@@H](Cc1ccccc1)C(=O)O)C(C)C)C(C)C` [copper-64 labelled] is reported as 4.34 SUV (dynamic PET; mouse, CT26 tumour, checkpoint inhibitor-treated, tumour; intravenous, 100 µCi/mouse, 3500 s).
`CC(C)Oc1c(NC(=O)c2ccc(NC(=O)[C@H](CC(N)=O)NC(=O)c3ccc(/N=N/c4ccccc4)cc3)cc2)ccc(C(=O)Nc2ccc(C(=O)O)cc2)c1O` has a thermal half-life of 1.8 h (absorbance; DMSO; 50 °C, PSS to ground state relaxation).
